Measurements from different studies.
Protocols differ between the studies behind these lines.
riboswitch RNA SAM-I metF-H2: riboswitch RNA SAM-I metF-H2 (Thermoanaerobacter tengcongensis)
T1: riboswitch RNA (Mesoplasma florum); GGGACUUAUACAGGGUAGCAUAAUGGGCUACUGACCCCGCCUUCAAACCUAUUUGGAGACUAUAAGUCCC
T2: riboswitch RNA SAM-I metF-H2 (Thermoanaerobacter tengcongensis); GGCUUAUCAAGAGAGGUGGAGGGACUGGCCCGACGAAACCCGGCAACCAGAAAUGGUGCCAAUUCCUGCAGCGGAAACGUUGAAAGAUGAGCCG
T3: riboswitch RNA (Paenibacillus durus); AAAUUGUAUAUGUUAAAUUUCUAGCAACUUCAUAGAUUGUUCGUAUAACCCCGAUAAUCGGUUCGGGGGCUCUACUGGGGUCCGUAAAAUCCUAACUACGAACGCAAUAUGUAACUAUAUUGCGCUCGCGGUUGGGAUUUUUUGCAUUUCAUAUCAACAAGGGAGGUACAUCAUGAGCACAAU
T4: riboswitch RNA, extra G-C pair, UUCG loop; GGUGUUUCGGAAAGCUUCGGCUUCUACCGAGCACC
T5: riboswitch RNA G16C (Synechocystis sp. PCC 6803); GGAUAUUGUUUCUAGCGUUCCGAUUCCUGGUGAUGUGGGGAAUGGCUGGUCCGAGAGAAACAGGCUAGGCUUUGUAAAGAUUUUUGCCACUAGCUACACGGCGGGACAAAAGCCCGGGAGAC
T6: riboswitch RNA A38C/U39C (Bacillus); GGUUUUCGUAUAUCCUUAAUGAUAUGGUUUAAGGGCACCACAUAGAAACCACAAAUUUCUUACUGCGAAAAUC

c1c[nH]cn1
binding (T1, riboswitch RNA (Mesoplasma florum); NMR): no binding

C[S+](CC[C@H](N)C(=O)O)C[C@H]1O[C@@H](n2cnc3c(N)ncnc32)[C@H](O)[C@@H]1O (stereo partly drawn)
binding (T2, riboswitch RNA SAM-I metF-H2 (Thermoanaerobacter tengcongensis); X-ray crystallography; together with: Mg2+, K+): binds

O=c1[nH]c(=O)c2[nH]cnc2[nH]1
binding (T3, riboswitch RNA (Paenibacillus durus); transcription termination, function, single-round transcription termination; together with: RNA polymerase): no binding

O=c1[nH]cnc2c1ncn2[C@H]1C[C@H](O)[C@@H](CO)O1
binding (T1, riboswitch RNA (Mesoplasma florum); NMR): no binding

Nc1ncnc2c1ncn2[C@@H]1O[C@H](CSCC[C@H](N)C(=O)O)[C@@H](O)[C@H]1O
binding (T2, riboswitch RNA SAM-I metF-H2 (Thermoanaerobacter tengcongensis); X-ray crystallography; together with: Mg2+, K+): binds

Nc1nc2c(ncn2[C@H]2C[C@H](O)[C@@H](COP(=O)(O)O)O2)c(=O)[nH]1
binding (T1, riboswitch RNA (Mesoplasma florum); NMR): no binding

NC[C@H]1O[C@H](O[C@H]2[C@H](O)[C@@H](O[C@H]3O[C@H](CO)[C@@H](O)[C@H](N)[C@H]3O)[C@H](N)C[C@@H]2N)[C@H](N)C[C@@H]1O
binding (T4, riboswitch RNA, extra G-C pair, UUCG loop; solution NMR): binds

N=C(N)N
binding (T5, riboswitch RNA G16C (Synechocystis sp. PCC 6803); in-line probing; 316 µM): no binding

Nc1nc2c(ncn2[C@H]2C[C@H](O)[C@@H](CO)O2)c(=O)[nH]1
binding (T6, riboswitch RNA A38C/U39C (Bacillus); ITC; KCl 50 mM): binds

For quick reference, copied from above:
C[S+](CC[C@H](N)C(=O)O)C[C@H]1O[C@@H](n2cnc3c(N)ncnc32)[C@H](O)[C@@H]1O (stereo partly drawn)
binding (T2, riboswitch RNA SAM-I metF-H2 (Thermoanaerobacter tengcongensis); X-ray crystallography; together with: Mg2+, K+): binds

N=C(N)N
binding (T5, riboswitch RNA G16C (Synechocystis sp. PCC 6803); in-line probing; 316 µM): no binding
